Measured values pooled from the literature.
Each numbered part is a random draw from the data of one study; scales do not carry over between parts.
UniProt Q8TDX7, sequence (whole entry, looked up): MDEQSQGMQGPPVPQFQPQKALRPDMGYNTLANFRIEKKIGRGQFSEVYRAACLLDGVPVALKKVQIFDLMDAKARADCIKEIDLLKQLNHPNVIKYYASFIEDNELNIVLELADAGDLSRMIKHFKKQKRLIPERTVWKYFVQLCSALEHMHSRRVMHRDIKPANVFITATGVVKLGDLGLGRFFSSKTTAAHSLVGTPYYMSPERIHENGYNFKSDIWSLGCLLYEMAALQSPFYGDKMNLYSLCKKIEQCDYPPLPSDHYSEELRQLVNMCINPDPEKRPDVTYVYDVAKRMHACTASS
UniProt P0C1S8, sequence (whole entry, looked up): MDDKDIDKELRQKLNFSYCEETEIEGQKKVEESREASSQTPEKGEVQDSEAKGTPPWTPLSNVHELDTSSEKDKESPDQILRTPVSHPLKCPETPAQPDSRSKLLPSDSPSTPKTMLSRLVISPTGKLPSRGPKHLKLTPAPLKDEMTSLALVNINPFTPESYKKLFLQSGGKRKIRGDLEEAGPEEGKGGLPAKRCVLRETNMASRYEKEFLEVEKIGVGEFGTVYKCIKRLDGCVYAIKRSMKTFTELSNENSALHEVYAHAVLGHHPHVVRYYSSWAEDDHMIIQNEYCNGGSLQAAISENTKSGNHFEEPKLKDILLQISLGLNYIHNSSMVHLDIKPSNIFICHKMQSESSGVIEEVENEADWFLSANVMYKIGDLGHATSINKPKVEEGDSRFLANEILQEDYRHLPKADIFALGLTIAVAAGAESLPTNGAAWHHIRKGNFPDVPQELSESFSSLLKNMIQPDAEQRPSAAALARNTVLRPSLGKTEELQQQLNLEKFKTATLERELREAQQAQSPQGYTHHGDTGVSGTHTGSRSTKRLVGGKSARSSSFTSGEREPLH
UniProt Q9HBY8, sequence (whole entry, looked up): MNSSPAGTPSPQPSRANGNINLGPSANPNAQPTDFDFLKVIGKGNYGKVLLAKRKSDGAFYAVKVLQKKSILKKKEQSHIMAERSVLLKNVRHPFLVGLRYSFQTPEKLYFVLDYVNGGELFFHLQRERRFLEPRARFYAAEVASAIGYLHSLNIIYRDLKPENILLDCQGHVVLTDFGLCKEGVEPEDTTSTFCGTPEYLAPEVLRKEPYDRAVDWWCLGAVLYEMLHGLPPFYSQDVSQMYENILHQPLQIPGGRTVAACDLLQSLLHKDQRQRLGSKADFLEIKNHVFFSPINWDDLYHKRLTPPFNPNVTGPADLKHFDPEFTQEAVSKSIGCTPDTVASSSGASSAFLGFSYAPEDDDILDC
UniProt O14976, sequence (whole entry, looked up): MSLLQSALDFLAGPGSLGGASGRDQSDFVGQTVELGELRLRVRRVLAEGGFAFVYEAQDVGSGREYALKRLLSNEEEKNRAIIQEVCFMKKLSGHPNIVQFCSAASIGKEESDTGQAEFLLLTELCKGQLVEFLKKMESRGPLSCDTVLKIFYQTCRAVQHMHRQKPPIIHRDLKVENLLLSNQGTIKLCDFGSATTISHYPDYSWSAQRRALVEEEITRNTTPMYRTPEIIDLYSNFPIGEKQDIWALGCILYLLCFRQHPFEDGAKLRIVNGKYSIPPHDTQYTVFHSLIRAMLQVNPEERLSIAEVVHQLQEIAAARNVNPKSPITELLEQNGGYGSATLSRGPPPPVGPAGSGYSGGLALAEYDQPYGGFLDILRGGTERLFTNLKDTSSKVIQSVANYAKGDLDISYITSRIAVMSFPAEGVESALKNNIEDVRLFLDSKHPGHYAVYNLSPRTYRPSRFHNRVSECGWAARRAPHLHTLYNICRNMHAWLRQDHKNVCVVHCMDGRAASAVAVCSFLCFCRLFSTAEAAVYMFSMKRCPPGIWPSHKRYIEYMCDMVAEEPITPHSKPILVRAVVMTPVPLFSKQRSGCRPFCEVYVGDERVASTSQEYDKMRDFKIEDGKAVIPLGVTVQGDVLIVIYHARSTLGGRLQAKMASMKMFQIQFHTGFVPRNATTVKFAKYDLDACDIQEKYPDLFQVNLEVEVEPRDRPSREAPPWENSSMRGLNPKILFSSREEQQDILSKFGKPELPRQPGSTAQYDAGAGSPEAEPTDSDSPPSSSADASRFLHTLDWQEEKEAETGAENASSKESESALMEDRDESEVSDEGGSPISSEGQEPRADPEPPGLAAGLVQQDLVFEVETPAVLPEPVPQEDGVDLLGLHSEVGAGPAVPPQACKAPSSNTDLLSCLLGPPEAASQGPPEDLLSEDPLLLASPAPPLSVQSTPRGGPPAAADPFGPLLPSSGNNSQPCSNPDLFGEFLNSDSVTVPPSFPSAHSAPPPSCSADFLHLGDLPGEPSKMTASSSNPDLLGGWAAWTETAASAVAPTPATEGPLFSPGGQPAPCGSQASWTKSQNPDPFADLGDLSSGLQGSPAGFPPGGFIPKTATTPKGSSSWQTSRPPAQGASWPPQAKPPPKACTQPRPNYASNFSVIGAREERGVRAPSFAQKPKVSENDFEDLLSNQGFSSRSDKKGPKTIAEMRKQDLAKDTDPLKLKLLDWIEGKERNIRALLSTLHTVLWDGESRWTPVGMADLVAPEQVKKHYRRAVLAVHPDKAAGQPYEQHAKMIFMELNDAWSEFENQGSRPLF

Study 1
Structure (SMILES): COc1ccc2c(O[C@@H]3C[C@H]4C(=O)N[C@]5(C(=O)O)CC5/C=C\CCCCC[C@H](NC(=O)OC5CCCC5)C(=O)N4C3)cc(-c3csc(NC(=O)C(C)C)n3)nc2c1C (stereo partly shown)
Effect on: cell-free assay
Method: competition with immobilised ligand
Concentration: 1 µM
| target | remaining binding [%] |
| --- | --- |
| Ribosomal protein S6 kinase alpha-3, C-terminal kinase domain (RPS6KA3, Homo sapiens, UniProt P51812) | 82 |
| Ephrin type-B receptor 2 (EPHB2, Homo sapiens, UniProt P29323) | 98 |
| Serine/threonine-protein kinase Nek7 (NEK7, Homo sapiens, UniProt Q8TDX7) | 100 |
| Serine/threonine-protein kinase Sgk2 (SGK2, Homo sapiens, UniProt Q9HBY8) | 87 |
| Calcium/calmodulin-dependent protein kinase type 1 (CAMK1, Homo sapiens, UniProt Q14012) | 100 |
| Wee1-like protein kinase 2 (WEE2, Homo sapiens, UniProt P0C1S8) | 100 |
| Cyclin-G-associated kinase (GAK, Homo sapiens, UniProt O14976) | 95 |
| Serine/threonine-protein kinase 32A (STK32A, Homo sapiens, UniProt Q8WU08) | 78 |
| Phosphatidylinositol 5-phosphate 4-kinase type-2 beta (PIP4K2B, Homo sapiens, UniProt P78356) | 100 |
| Discoidin domain-containing receptor 2 (DDR2, Homo sapiens, UniProt Q16832) | 88 |

Study 2
Target: DDB1- and CUL4-associated factor 1 (DCAF1, Homo sapiens, UniProt Q9Y4B6)
UniProt Q9Y4B6, sequence (whole entry, looked up): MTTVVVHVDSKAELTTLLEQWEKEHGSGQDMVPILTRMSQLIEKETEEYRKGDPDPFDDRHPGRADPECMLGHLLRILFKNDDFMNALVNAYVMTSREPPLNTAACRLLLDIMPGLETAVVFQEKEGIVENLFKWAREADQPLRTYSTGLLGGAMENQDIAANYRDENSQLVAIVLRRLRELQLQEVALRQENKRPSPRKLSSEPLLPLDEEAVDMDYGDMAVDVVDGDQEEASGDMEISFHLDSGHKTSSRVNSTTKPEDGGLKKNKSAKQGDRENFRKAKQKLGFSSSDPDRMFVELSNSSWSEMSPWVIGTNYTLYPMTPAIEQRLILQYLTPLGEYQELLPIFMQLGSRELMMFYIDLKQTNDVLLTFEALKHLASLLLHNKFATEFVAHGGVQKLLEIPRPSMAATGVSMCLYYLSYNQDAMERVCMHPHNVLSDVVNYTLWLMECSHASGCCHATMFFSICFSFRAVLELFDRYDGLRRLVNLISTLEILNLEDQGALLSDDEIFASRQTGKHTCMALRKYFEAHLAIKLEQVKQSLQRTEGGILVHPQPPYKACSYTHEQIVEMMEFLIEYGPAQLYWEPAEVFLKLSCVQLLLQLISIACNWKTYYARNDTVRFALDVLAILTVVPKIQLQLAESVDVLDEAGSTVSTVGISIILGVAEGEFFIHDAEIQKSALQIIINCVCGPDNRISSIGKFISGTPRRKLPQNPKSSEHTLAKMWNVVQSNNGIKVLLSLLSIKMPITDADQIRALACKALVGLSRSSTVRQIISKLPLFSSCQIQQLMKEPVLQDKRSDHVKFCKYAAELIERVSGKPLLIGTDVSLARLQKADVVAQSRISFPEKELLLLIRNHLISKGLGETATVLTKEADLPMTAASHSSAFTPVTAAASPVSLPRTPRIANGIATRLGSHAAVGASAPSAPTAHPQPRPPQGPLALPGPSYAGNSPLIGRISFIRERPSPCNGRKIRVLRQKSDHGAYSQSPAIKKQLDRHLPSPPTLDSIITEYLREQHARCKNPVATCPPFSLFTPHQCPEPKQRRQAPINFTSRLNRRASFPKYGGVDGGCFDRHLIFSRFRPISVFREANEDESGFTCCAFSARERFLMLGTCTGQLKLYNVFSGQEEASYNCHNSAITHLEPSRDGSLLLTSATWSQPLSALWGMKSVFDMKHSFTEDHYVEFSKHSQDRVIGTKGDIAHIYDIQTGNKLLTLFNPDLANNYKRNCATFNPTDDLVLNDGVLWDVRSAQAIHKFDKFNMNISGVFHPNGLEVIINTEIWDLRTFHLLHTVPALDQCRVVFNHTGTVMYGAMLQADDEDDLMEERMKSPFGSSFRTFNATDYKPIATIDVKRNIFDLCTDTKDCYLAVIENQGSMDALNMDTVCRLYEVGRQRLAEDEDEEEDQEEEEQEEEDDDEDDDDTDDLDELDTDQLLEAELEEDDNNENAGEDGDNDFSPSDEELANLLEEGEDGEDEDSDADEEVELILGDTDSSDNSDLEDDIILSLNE
Method: SPR
Concentration: concentration not given
| SMILES | binding |
| --- | --- |
| C[C@@H]1CN(c2ccc(-c3cc(C(=O)NCCCNC(=O)/C=C/c4[nH]cc(C(=O)N[C@@H](CC(N)=O)c5ccc(F)c(Cl)c5)c4-c4ccc(Cl)cc4F)ccc3F)cc2NC(=O)c2c[nH]c(=O)cc2C(F)(F)F)C[C@H](C)N1C | 73.4% |
| C[C@@H]1CN(c2ccc(-c3cc(C(=O)NCCOCCOCCOCCOCCNC(=O)/C=C/c4[nH]cc(C(=O)N[C@@H](CC(N)=O)c5ccc(F)c(Cl)c5)c4-c4ccc(Cl)cc4F)ccc3F)cc2NC(=O)c2c[nH]c(=O)cc2C(F)(F)F)C[C@H](C)N1C | 63.3% |
| C[C@@H]1CN(c2ccc(-c3cc(C(=O)NCCOCCOCCOCCOCCOCCOCCNC(=O)/C=C/c4[nH]cc(C(=O)N[C@@H](CC(N)=O)c5ccc(F)c(Cl)c5)c4-c4ccc(Cl)cc4F)ccc3F)cc2NC(=O)c2ccc(F)cc2C(F)(F)F)C[C@H](C)N1C | 20.3% |

Study 3
SMILES: C=CCc1ccc(O)c(-c2cc(CC=C)ccc2O)c1
Effect on: chloride current
Method: whole-cell voltage clamp
ANO1 del476-501/K629D: Anoctamin-1 (ANO1, Homo sapiens, UniProt Q5XXA6, del476-501/K629D)
UniProt Q5XXA6, sequence (whole entry, unmodified, looked up): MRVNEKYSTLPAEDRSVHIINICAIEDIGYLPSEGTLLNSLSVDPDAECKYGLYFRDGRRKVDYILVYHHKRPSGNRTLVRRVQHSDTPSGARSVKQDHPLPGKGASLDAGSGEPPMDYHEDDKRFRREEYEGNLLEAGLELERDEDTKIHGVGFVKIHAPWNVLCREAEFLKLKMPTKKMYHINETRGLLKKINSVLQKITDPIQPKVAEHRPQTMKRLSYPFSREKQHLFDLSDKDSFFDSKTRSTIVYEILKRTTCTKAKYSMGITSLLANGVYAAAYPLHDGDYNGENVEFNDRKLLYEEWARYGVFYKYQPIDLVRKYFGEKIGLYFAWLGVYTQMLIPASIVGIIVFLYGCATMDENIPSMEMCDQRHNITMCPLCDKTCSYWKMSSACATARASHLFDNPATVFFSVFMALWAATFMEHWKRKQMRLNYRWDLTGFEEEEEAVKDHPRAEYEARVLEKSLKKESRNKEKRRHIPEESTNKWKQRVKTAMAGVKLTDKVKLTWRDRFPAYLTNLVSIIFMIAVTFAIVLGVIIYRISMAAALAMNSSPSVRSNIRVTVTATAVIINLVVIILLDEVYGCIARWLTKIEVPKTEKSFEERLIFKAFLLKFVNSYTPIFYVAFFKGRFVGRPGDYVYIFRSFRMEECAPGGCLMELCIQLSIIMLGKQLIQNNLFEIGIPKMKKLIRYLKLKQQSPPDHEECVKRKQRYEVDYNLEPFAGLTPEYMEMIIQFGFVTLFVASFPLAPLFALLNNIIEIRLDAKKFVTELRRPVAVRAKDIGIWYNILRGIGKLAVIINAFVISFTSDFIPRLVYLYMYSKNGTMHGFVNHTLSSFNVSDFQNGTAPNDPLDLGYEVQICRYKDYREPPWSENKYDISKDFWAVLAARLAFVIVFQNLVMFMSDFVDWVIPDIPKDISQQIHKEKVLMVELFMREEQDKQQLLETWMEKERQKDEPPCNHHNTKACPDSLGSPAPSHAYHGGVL
| target | action | concentration | notes | together with | IC50 [µM] |
| --- | --- | --- | --- | --- | --- |
| Anoctamin-1 (ANO1, Homo sapiens, UniProt Q5XXA6, del476-501/F623A) | – | – | membrane voltage 40 mV | – | 22.5 |
| ANO1 del476-501/K629D | inhibitor | 60 mV holding voltage | – | – | 213 |
| Anoctamin-1 (ANO1, Homo sapiens, UniProt Q5XXA6, del476-501/E649I) | inhibitor | – | E623I mutant at 80 mV | – | 120 |
| ANO1 del476-501/K629D | inhibitor | 20 mV holding voltage | – | – | 193 |
| Anoctamin-1 (ANO1, Homo sapiens, UniProt Q5XXA6, del476-501/F627A) | inhibitor | – | mutant F601A at 100 mV | 300 nM Ca2+ | 27.7 |
| Anoctamin-1 (ANO1, Homo sapiens, UniProt Q5XXA6, del476-501/K629I) | inhibitor | 80 mV holding voltage | – | – | 232 |
| Anoctamin-1 (ANO1, Homo sapiens, UniProt Q5XXA6, del476-501/R541K) | inhibitor | – | R515K mutant at 80 mV | – | 25.4 |
| Anoctamin-1 (ANO1, Homo sapiens, UniProt Q5XXA6, del476-501/K629R) | inhibitor | – | mutant K603R | – | 251 |
| Anoctamin-1 (ANO1, Homo sapiens, UniProt Q5XXA6, D383A/del476-501) | inhibitor | – | pore pocket mutant D383A at 100 mV | 300 nM Ca2+ | 36.8 |
| Anoctamin-1 (ANO1, Homo sapiens, UniProt Q5XXA6, del476-501/R561A) | – | – | membrane voltage 80 mV | – | 26.8 |

Study 4
Target: Diamine acetyltransferase 1 (Homo sapiens, UniProt P21673)
Action: inhibitor
Concentration: 10 µM
Relative to: control
Residues (P21673 1-171): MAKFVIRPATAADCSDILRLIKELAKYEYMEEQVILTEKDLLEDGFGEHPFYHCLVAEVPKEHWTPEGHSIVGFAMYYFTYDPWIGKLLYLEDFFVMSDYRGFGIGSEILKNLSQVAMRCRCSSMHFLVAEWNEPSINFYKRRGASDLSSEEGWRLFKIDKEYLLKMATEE
| Compound | remaining activity [%] |
| --- | --- |
| C=C(C)[C@@H]1CCC2=CC(=O)C[C@@H](C)[C@]2(C)C1 | 100 |
| COc1cc(OC)c2ccc(=O)oc2c1 | 81.8 |
| C=C1CCC[C@]2(C)C[C@]3(O)OC(=O)C(C)=C3C[C@@H]12 | 85.4 |
| C[C@H]1CC[C@@]2(O)C(C)(C)[C@@H]3CC[C@@]2(C)[C@H]1C3 | 91.6 |
| C=CCC1=C[C@]2(OC)C(=CC1=O)O[C@H](c1ccc(OC)c(OC)c1)[C@H]2C | 112 |
| O=C(O)/C=C\C(=O)O | 80.9 |
| CC1(C)CC[C@]2(C(=O)O)CC[C@]3(C)C(=CC[C@@H]4[C@@]5(C)C[C@@H](O)[C@H](O)C(C)(C)[C@@H]5CC[C@]43C)[C@@H]2C1 | 88.6 |
| C[N+](C)(C)C[C@H](O)CC(=O)[O-] | 94.3 |
| O=c1c(O[C@@H]2O[C@H](CO)[C@@H](O)[C@H](O)[C@H]2O[C@@H]2O[C@H](CO)[C@@H](O)[C@H](O)[C@H]2O)c(-c2ccc(O)cc2)oc2cc(O)cc(O)c12 | 73.9 |
| C/C=C/C=C/C=C\CC/C=C/C(=O)NCC(C)(C)O | 89.8 |
| COc1cc(O)c2c(c1)CCc1cc(O)ccc1-2 | 85.4 |
| CCCCCCCCCCCCCCCCCCCC | 85.5 |
| COc1ccccc1C=O | 95.3 |
| Nc1ncnc2c1ncn2[C@@H]1O[C@H](COP(=O)(O)O)[C@@H](O)[C@H]1O | 86.6 |

For quick reference, copied from above (study 1):
| target | remaining binding [%] |
| --- | --- |
| Serine/threonine-protein kinase Sgk2 (SGK2, Homo sapiens, UniProt Q9HBY8) | 87 |
| Ribosomal protein S6 kinase alpha-3, C-terminal kinase domain (RPS6KA3, Homo sapiens, UniProt P51812) | 82 |
| Wee1-like protein kinase 2 (WEE2, Homo sapiens, UniProt P0C1S8) | 100 |
| Discoidin domain-containing receptor 2 (DDR2, Homo sapiens, UniProt Q16832) | 88 |
